Literature values that unrelated publications cite.
Each line is one published result; not all experiments were run side by side. ± marks the error that the study gave.
UGT1A1: UDP-glucuronosyltransferase 1A1 (UGT1A1, Homo sapiens, UniProt P22309)
Chain of UniProt P22309 (whole entry, looked up): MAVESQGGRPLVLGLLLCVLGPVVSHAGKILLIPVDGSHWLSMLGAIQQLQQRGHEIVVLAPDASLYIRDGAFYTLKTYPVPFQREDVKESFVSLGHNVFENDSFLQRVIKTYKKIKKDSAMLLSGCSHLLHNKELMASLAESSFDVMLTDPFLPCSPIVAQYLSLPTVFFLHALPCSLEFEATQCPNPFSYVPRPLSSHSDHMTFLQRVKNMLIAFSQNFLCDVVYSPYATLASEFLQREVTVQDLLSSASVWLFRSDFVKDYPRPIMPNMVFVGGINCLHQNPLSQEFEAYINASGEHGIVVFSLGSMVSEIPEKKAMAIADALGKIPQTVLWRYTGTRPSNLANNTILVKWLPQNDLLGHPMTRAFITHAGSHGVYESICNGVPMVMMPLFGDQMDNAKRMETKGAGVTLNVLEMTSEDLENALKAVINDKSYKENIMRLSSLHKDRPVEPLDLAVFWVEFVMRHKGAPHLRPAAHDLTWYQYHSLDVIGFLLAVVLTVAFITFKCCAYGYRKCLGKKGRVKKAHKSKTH
Chain of UniProt P37288 (whole entry, looked up): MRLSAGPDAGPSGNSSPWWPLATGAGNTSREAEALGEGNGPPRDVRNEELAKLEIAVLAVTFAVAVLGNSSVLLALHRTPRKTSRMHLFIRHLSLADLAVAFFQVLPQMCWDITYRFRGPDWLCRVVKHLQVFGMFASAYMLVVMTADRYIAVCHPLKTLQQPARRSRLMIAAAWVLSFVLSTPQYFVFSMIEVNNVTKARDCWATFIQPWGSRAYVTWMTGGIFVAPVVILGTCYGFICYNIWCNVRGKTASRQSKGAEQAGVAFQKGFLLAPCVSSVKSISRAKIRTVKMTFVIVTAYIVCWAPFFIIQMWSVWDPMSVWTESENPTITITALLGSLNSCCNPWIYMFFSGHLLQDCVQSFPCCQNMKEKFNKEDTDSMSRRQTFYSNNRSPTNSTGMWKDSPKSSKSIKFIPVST
Chain of UniProt Q9Y5N1 (whole entry, looked up): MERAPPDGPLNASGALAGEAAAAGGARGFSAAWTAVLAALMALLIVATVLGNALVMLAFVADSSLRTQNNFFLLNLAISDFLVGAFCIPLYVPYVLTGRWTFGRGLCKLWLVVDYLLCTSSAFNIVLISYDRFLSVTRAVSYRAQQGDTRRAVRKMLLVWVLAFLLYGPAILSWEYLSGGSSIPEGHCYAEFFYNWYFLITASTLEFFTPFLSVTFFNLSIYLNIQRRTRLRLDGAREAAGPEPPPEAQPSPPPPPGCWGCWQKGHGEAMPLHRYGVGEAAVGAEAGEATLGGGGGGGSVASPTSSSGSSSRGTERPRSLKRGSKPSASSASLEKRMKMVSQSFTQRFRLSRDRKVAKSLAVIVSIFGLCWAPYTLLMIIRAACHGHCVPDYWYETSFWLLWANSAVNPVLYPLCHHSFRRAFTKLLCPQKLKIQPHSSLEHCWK
Chain of UniProt Q9NZQ7 (whole entry, looked up): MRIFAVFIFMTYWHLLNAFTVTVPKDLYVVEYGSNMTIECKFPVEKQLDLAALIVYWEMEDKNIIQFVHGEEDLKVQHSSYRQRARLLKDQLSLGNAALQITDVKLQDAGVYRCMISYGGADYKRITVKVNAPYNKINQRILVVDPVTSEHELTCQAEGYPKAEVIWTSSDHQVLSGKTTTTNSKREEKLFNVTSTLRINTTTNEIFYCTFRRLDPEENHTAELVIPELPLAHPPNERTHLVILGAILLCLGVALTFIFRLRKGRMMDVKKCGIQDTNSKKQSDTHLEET
Chain of UniProt O15229 (whole entry, looked up): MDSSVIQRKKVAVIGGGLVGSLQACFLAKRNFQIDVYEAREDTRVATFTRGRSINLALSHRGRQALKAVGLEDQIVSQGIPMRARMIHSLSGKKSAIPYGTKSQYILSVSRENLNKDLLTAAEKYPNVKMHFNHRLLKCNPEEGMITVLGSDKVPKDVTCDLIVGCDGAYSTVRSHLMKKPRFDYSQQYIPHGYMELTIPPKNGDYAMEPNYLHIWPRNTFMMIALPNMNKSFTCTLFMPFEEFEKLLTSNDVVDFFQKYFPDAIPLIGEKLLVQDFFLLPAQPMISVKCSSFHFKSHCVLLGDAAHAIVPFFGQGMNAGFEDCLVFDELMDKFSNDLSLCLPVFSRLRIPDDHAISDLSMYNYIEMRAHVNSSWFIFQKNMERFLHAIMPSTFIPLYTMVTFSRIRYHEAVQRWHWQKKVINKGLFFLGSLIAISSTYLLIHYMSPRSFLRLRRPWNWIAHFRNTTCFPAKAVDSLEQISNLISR
Chain of UniProt Q9NTG7 (whole entry, looked up): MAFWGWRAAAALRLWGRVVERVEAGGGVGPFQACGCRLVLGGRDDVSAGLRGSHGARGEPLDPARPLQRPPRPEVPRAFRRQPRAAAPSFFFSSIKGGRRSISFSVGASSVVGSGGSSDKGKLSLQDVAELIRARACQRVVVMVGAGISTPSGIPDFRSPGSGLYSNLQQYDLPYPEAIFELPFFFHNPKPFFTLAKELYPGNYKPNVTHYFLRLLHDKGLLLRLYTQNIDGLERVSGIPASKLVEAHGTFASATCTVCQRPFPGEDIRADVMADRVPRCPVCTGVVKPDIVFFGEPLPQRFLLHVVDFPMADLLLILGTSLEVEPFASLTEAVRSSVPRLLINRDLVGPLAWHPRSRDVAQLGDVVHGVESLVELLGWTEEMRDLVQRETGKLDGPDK
Chain of UniProt P48066 (whole entry, looked up): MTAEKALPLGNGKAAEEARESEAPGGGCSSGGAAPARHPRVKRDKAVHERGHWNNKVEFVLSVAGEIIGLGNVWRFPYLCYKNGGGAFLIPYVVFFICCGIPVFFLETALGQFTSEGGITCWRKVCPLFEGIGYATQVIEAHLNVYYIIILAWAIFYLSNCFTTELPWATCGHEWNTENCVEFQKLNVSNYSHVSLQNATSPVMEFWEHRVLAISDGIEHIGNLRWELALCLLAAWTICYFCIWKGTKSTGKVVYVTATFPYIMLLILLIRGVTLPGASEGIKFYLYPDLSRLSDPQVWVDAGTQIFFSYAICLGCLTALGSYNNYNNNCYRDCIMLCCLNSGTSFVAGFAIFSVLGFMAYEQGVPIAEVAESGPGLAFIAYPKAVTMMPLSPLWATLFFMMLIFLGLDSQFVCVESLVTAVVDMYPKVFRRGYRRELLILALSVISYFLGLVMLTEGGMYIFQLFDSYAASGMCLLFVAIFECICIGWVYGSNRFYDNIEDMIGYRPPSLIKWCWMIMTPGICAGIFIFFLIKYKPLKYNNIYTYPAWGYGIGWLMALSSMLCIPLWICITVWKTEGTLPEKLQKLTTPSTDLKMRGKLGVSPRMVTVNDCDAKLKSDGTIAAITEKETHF
Chain of UniProt P40337 (whole entry, unmodified, looked up): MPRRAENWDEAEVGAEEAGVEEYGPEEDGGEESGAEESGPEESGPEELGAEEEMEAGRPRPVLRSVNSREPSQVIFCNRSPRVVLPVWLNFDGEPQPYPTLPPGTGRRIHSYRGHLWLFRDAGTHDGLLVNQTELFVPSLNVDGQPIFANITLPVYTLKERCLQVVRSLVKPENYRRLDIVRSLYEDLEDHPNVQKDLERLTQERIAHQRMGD

| Structure (SMILES) | tested on | test | system | setting | quantity | value |
| --- | --- | --- | --- | --- | --- | --- |
| O=C(O)C1OC(Oc2ccc(-c3cc(=O)c4ccccc4o3)cc2)C(O)C(O)C1O (centres unmarked) | UGT1A1 | glucuronidation, substrate | Supersomes | – | Vmax | 0.85 ± 0.01 nmol/mg/min |
| Cc1nc(-c2ccc(F)cc2)sc1C(=O)N[C@H](C(=O)Nc1cccc(C(N)=O)c1)c1ccc(OCc2ccccc2)cc1 | Genome polyprotein, NS2B-NS3 protease (dengue virus type 2, UniProt P29990) | DENV-2 protease cell reporter | HeLa | 12.5 µM | inhibition | 88% |
| O=C(O)C1OC(Oc2ccc3c(=O)c(O)c(-c4ccc(O)cc4)oc3c2)C(O)C(O)C1O (centres unmarked) | UGT1A1 | glucuronidation, substrate | Supersomes | – | Vmax | 1.08 ± 0.13 nmol/mg/min |
| CNC(=S)NCCCC[C@H](NC(=O)OCc1ccccc1)C(=O)N[C@@H](Cc1c[nH]c2ccccc12)C(=O)NC(C)C | SIRT3 (Homo sapiens, UniProt Q9NTG7) | enzyme activity, inhibitor | – | 10 µM | inhibition | 12% |
| O=C(O)[C@@H](O)[C@@H]1CCCN1 | SLC6A11 (Homo sapiens, UniProt P48066) | inhibitor | – | concentration not given | transporter inhibition | inhibited |
| Cc1c(COc2ccc(CN3CCCCC3C(=O)NCCCn3cc(CCCC(=O)NCCCC[C@@H]4NC(=O)[C@@H](Cc5ccc(O)cc5)NC(=O)[C@H](CC(=O)O)NC(=O)CNC(=O)[C@H](CCCNC(=N)N)NC4=O)nn3)cc2Br)cccc1-c1ccccc1 (some centres unmarked) | CD274 (Homo sapiens, UniProt Q9NZQ7) | degrader | MDA-MB-231 | – | Dmax | 70% |
| CNCCNC(=O)CN1C(=O)Cc2c([nH]c3ccc(Br)cc23)-c2ccc(Cl)cc21 | Trypanothione synthetase (Trypanosoma brucei brucei, UniProt Q8IEX1) | enzyme activity | – | 30 µM | inhibition | 59 ± 6% |
| O=C(O)C1OC(Oc2c(-c3ccccc3)oc3ccccc3c2=O)C(O)C(O)C1O (centres unmarked) | UGT1A1 | glucuronidation, substrate | Supersomes | – | Vmax | 1.74 ± 0.03 nmol/mg/min |
| Cc1ncsc1-c1ccc2c(c1)OCCOCCOC[C@@H](NC(=O)C[C@@H]1N=C(c3ccc(Cl)cc3)c3c(sc(C)c3C)-n3c(C)nnc31)COCCOCCOCC(=O)N[C@@H](C(C)(C)C)C(=O)N1C[C@H](O)C[C@H]1C(=O)NC2 | Bromodomain-containing protein 4, BD2 (BRD4, Homo sapiens, UniProt O60885) | isothermal titration calorimetry | – | BRD4 titrated into compound | ΔG | -9.2 kcal/mol |
| O=C(O)C1OC(Oc2cc(O)c3c(=O)c(O)c(-c4ccccc4)oc3c2)C(O)C(O)C1O (centres unmarked) | UGT1A1 | glucuronidation, substrate | Supersomes | – | Vmax | 4.59 ± 0.46 nmol/mg/min |
| C[C@H](NC(=O)[C@@H](N)CC(=O)O)C(=O)N[C@@H](Cc1c[nH]cn1)C(=O)N[C@@H](CCCCN)C(N)=O | Cu2+ | – | – | concentration not given | Cu2+ binding affinity Ka | ~10 1.000e+14 M⁻¹ |
| Cc1ncsc1-c1ccc(CNC(=O)[C@@H]2C[C@@H](O)CN2C(=O)[C@@H](NC(=O)COCCOCCOCCNC(=O)C[C@@H]2N=C(c3ccc(Cl)cc3)c3c(sc(C)c3C)-n3c(C)nnc32)C(C)(C)C)cc1 | von Hippel-Lindau disease tumor suppressor, with Elongin B/C (VHL, Homo sapiens, UniProt P40337) | isothermal titration calorimetry | – | VCB titrated into compound | ΔG | -9.81 kcal/mol |
| O=C(O)C1OC(Oc2ccc(-c3oc4ccc(O)cc4c(=O)c3O)cc2)C(O)C(O)C1O (centres unmarked) | UGT1A1 | glucuronidation, substrate | Supersomes | – | Vmax | 0.34 ± 0.03 nmol/mg/min |
| O=c1ccc(OCCCN2CCCCC2)nn1-c1ccc(Cl)c(Cl)c1 | HRH3 (Homo sapiens, UniProt Q9Y5N1) | – | – | 1.0 µM | inhibition | 35.6 ± 3.2% |
| Cc1cc(O)c2c(c1O)C(=O)c1cc(O)cc(O)c1C2=O | AVPR1A (Homo sapiens, UniProt P37288) | antagonist | – | 50 µM | inhibition | 59.2 ± 0.1% |
| O=C(O)C1OC(Oc2cc(O)c3c(=O)c(O)c(-c4ccc(O)cc4)oc3c2)C(O)C(O)C1O (centres unmarked) | UGT1A1 | glucuronidation, substrate | Supersomes | – | Vmax | 1.38 ± 0.14 nmol/mg/min |
| CC1CCN(C(=O)c2cccc(NC(=O)Nc3ccc(Cl)cc3)c2)CC1 | Penicillin-binding protein 4 (Staphylococcus aureus, UniProt P72355) | Bocillin-FL binding | – | 50 µM | inhibition | 69.2 ± 14.6% |
| CN(C)C/C=C/C(=O)Nc1ccc(C(=O)Nc2cccc(Nc3cc(-c4c[nH]c5ccccc45)ncn3)c2)cc1 | PI5P4K alpha, beta, gamma | kinase activity, inhibitor | – | – | IC50 | 200 to 2800 nM |
| Nc1ccccc1C(=O)CC(N)C(=O)O (centres unmarked) | KMO (Homo sapiens, UniProt O15229) | substrate | – | – | Km | 7 µM |
| COc1ccc(Nc2nc(Nc3ccc(OCC[18F])cc3)ncc2Br)cc1 | – | – | S180 tumour-bearing mice, bone | intravenous, 30 min | tissue uptake | 3.79 ± 0.42 %ID/g |

Repeated from above:
| Structure (SMILES) | tested on | test | system | setting | quantity | value |
| --- | --- | --- | --- | --- | --- | --- |
| Cc1ncsc1-c1ccc(CNC(=O)[C@@H]2C[C@@H](O)CN2C(=O)[C@@H](NC(=O)COCCOCCOCCNC(=O)C[C@@H]2N=C(c3ccc(Cl)cc3)c3c(sc(C)c3C)-n3c(C)nnc32)C(C)(C)C)cc1 | von Hippel-Lindau disease tumor suppressor, with Elongin B/C (VHL, Homo sapiens, UniProt P40337) | isothermal titration calorimetry | – | VCB titrated into compound | ΔG | -9.81 kcal/mol |
| O=C(O)C1OC(Oc2ccc(-c3oc4ccc(O)cc4c(=O)c3O)cc2)C(O)C(O)C1O (centres unmarked) | UGT1A1 | glucuronidation, substrate | Supersomes | – | Vmax | 0.34 ± 0.03 nmol/mg/min |
| O=c1ccc(OCCCN2CCCCC2)nn1-c1ccc(Cl)c(Cl)c1 | HRH3 (Homo sapiens, UniProt Q9Y5N1) | – | – | 1.0 µM | inhibition | 35.6 ± 3.2% |
